Assay results from different studies.
Organism: Candida albicans

OC(Cn1cncn1)(Cn1cncn1)c1ccc(F)cc1F  MIC (broth microdilution; 7; 24 h, compound alone): 4 µg/mL
OC(Cn1cncn1)(Cn1cncn1)c1ccc(F)cc1F  MIC (CAF2-1): 1 µg/mL
O=C1C(Br)=C(Br)C(=O)c2ccccc21  MIC (ATCC 60193; 24 h, with: sorbitol 0.8 M): 6.25 µg/mL
OC(Cn1cncn1)(Cn1cncn1)c1ccc(F)cc1F  MIC (alveolar fluid isolate, RPMI MOPS; 48 h, 37 °C): 2 µM
OC(Cn1cncn1)(Cn1cncn1)c1ccc(F)cc1F  MIC (broth microdilution; BNCC 186382): 4 µg/mL
CCCCCOc1ccc(-c2ccc(-c3ccc(C(=O)N[C@H]4C[C@@H](O)[C@@H](OCC[N+](C)(C)C)NC(=O)[C@@H]5[C@@H](O)[C@@H](C)CN5C(=O)[C@H]([C@@H](C)O)NC(=O)[C@H]([C@H](O)[C@@H](O)c5ccc(O)cc5)NC(=O)[C@@H]5C[C@@H](O)CN5C(=O)[C@H]([C@@H](C)O)NC4=O)cc3)cc2)cc1  MIC (CLSI broth microdilution; 580): 0.016 µg/mL
C[C@@H]1[C@H](O)[C@@H](C)/C=C/C=C/C=C/C=C/C=C/C=C/C=C/[C@H](O[C@@H]2O[C@H](C)[C@@H](O)[C@H](N)[C@@H]2O)C[C@@H]2O[C@](O)(C[C@@H](O)C[C@@H](O)[C@H](O)CC[C@@H](O)C[C@@H](O)CC(=O)O[C@H]1C)C[C@H](O)[C@H]2C(=O)O  MIC (broth microdilution; ATCC 90029, RPMI-MOPS medium; 24 h, pH 7.0, 35 °C, MIC at 90% growth inhibition, with: potentiator 0 µg/mL): 1 µg/mL
C[C@@H]1[C@H](O)[C@@H](C)/C=C/C=C/C=C/C=C/C=C/C=C/C=C/[C@H](O[C@@H]2O[C@H](C)[C@@H](O)[C@H](N)[C@@H]2O)C[C@@H]2O[C@](O)(C[C@@H](O)C[C@@H](O)[C@H](O)CC[C@@H](O)C[C@@H](O)CC(=O)O[C@H]1C)C[C@H](O)[C@H]2C(=O)O  MIC (SP3903, RPMI MOPS; 48 h, 37 °C): 0.5 µM
C=C1C(=O)O[C@@H](CCCCCCCCCCCCC)[C@@H]1C(=O)O  MIC (CAF2-1): 64 µg/mL
OC(Cn1cncn1)(Cn1cncn1)c1ccc(F)cc1F  MIC (ATCC 90029; 24 h): 12.5 µg/mL

Repeated from above:
OC(Cn1cncn1)(Cn1cncn1)c1ccc(F)cc1F  MIC (broth microdilution; BNCC 186382): 4 µg/mL
